Experimental data pooled from the literature.
A part holds a random share of what one study measured.

Sample 1
Target: Prothrombin, mature alpha-thrombin (F2, Homo sapiens, UniProt P00734)
Technique: aptamer microarray, sandwich
Form: DNA with 2'F-ANA
Matrix: in vitro
Tested at: 200 nM
Setting: whole 15-mer aptamer, many near background
Together with: Cy3 exosite-II aptamer, 400 nM
Reading: higher = stronger binding
Strand: GGTTGGTGTGGTTGG
Modification | mean fluorescence intensity [a.u.]
2'F-ANA at 1 3 4 5 7 11 14 15 | 46.8
2'F-ANA at 8 9 10 11 12 13 15 | 176
2'F-ANA at 2 6 8 9 11 12 13 14 | 134
2'F-ANA at 2 3 5 7 9 11 13 14 15 | 57.2
2'F-ANA at 1 5 8 9 12 14 15 | 51.7
2'F-ANA at 2 4 5 7 9 11 12 13 15 | 125
2'F-ANA at 1 2 4 5 9 10 11 12 13 14 15 | 48.2
2'F-ANA at 5 6 9 10 13 14 15 | 45.4
2'F-ANA at 1 2 4 5 6 10 12 14 | 47.1
2'F-ANA at 1 2 10 12 14 | 107
2'F-ANA at 1 3 4 7 8 9 11 13 15 | 154
2'F-ANA at 1 2 3 4 9 10 14 | 57.2
2'F-ANA at 1 3 5 8 9 10 11 13 | 51.6
2'F-ANA at 1 2 6 10 12 13 14 | 49.1
2'F-ANA at 2 3 5 7 8 9 10 12 15 | 67.6
2'F-ANA at 1 2 5 6 7 9 11 12 | 118
2'F-ANA at 1 2 4 5 6 7 8 9 10 11 13 14 | 48.7
2'F-ANA at 3 4 5 8 11 12 13 14 15 | 58.1
2'F-ANA at 4 5 7 8 10 11 13 | 44.2
2'F-ANA at 2 4 8 10 11 13 14 | 73.1
2'F-ANA at 3 4 5 6 7 10 14 15 | 48.4
2'F-ANA at 2 3 4 6 7 8 9 10 11 13 14 15 | 246

Sample 2
Target: Histone acetyltransferase KAT6A, both winged helices, GST fusion (KAT6A, Homo sapiens, UniProt Q92794, residues 1-181)
Technique: protein binding microarray
Form: double-stranded DNA, one strand shown
Matrix: in vitro
Tested at: not given
Setting: 8-mer, flanks averaged, mean of 2 arrays, mostly near background
Baseline: not given
Reading: higher = stronger binding
Residues (chain): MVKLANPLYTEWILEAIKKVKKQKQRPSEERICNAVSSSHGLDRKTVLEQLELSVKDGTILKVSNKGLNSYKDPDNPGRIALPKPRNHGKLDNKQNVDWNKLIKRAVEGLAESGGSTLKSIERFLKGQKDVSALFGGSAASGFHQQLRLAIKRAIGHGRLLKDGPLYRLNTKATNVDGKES
Strand | E-score
AACCGTTA | 0.0913
GTCGTTCA | 0.0162
ATTCCACG | 0.00825
ACAGAGAG | -0.237
CCGTAAGC | 0.248
CCGCACAC | 0.161
ATTGATAG | -0.0565
GCGAGACC | 0.0756
ACCCTGAC | -0.163
CACACAAG | -0.171
ACATCTCG | -0.0819
CAGGCGAA | -0.146
GGGCCGGA | 0.0268
AGCTCAAG | -0.174
ATATGACA | -0.152
ATGAAATA | -0.0553
GGAATTCC | -0.0243
CACCTAGG | -0.0782
AATCCCAG | -0.161
GAGTGATC | -0.0937
GTACATGA | -0.0447
GGAGGCCC | 0.00173
AGGGCAGC | -0.13
AGCGGGAA | 0.257

Sample 3
Target: RNA binding protein fox-1 homolog 2, RRM domain, GST-SBP tag (RBFOX2, Homo sapiens, UniProt O43251-10, residues 100-194)
Technique: RNA Bind-n-Seq
Form: RNA
Matrix: in vitro
Tested at: 365 nM
Setting: natural RNA segment, single round, ends assumed
Baseline: no-protein control
Reading: higher = stronger binding
Shared flanks, not repeated: GGGAGUUCUACAGUCCGACGAUC … UGGAAUUCUCGGGUGCCAA
Construct (chain): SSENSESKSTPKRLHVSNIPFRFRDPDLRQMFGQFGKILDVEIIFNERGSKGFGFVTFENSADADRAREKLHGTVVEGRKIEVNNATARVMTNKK
Strand | RBNS enrichment (R)
GUAAACAGACAAGGAAGAUAUCCUCUGUACCAGUGAUGUCCUGCCCCCAGUGCAUUUCUUCACAGUGAAGAAAAGGAAAAAUUUCAAAACAAUACUUUUUGUAUUAUCUA | 0.331
UAUUAUUCCCCUGCUUCAUGGCUGAAAUAAAAGGUGAUGGUAACUGGGGGCACCCCCUCUCCCUGGGAUAGCCACUGUCGGGGAGCACAGGACCAGCCUCUGGAUCAGUC | 0.383
GUGGAGAUGUGGCUGGACAGGUUUGCCAUCAGAGUGGAUAUACCGUUGUAUUAAAAACAAGAUAAAAAAGCUGCCAAGAUUUUUGGCGAGUGGUUGGUCUGAAGUCCUUG | 0.623
AUAUGAAUAUUUCUCUCCAUGUAUAGUGUGAGCUGCCAAUGCAUUAUCUUAAUACAUCAAGAAGGAAAUCAGAUUUCAGGCACACAUUAGCAAUUGUUUGUUAAUGUCCU | 0.363
GCAUUUGAGUACCUACUGUGAGCAGGCAUUGGGGCGGAGCAGCGAGAGCCCUGCCGAUGUUGGGUUCUCCUCCUAUUGGGGAAACUUGAUCACAGAUGGAACACGUGCAG | 0.683
UGAUCACUUUUGAACCUGCCCCUUAACCUUGACGAGGAUACAAAAGUGAAAGCAUCAUCCCCCAAAGGAUCACUGCACAGUCCUACUACAGUAUUUUUAAGUAGCCCUCU | 0.491
CCCAUCACAGCAUUCCCAGGUCCUGGUACCCAGCCCUCAGUUGUCAUUUGGUUCAGAAUCAGUUCCCUUUCUCUGGGACCAAAUUUCCCUUCUCUAAACAUCCUACAGAG | 0.5
ACACAAACCUCACCCCUGUCACAUCAGUGACUCUGACCACUUUUGUUCUCAAACUCUCUCACUAUUAUCUGUGGUUGCCGUUUCUUCCCAAGGCCAGCCUGGACGAAUUU | 0.497
UGCAGUAACUCUGUACUUCUCUAUCUGCACACACAAAAUGCCCAAGGCACUCACUGGGGAGGAAGCAAGGAAGCAAACAGUCUGAGAAAAUGAUGCAAGAAAAUCAAAUG | 1.54
AAAAAAAACUACAUGCAAAACUGUAGGUAAUGAAAAUGAUGUAUUUUUUUCAUCUUUUUUUGUUAACUAAUUUGCAAUAAAAAUGAUACUGAUGGUUGUCCACAUUUUGC | 0.45
UGUCAUCUCUACUGGGCCAUAGGACCGGGCAAACCUACCUUAAAAUAGGCAGAGGAAAGUUUCAUGAGAAGUAGUGUGUUUAACAAGACAGACUUUGGUUGCUGUAUUCA | 0.656
GAGUGGAUAAGCCUGCAUUAAUACAACCUUUCUCCAUUCACUUUCUAUUUACAAAUUAGGAAAGCAACCUUUUGGUUUAUAUAUAUUUUUUUUAAUACCUCAGUGCUGCA | 0.847

Sample 4
Target: Interferon regulatory factor 3, full length, phosphomimetic (IRF3, Homo sapiens, UniProt Q14653, residues 1-427, S386D/S396D/S398D/S402D/T404D/S405D)
Sequence of UniProt Q14653 (whole entry, unmodified, looked up): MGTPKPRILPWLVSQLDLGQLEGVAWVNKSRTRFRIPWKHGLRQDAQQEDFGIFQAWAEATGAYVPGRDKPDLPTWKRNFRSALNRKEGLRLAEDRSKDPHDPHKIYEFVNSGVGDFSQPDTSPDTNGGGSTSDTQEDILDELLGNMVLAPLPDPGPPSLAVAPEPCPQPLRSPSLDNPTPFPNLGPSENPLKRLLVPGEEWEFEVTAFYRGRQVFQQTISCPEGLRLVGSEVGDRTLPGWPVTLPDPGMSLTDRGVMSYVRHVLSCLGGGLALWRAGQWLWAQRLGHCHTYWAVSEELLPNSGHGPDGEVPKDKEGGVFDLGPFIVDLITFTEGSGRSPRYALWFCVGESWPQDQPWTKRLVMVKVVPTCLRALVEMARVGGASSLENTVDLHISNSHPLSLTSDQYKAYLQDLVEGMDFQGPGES
Technique: protein-binding microarray
Form: double-stranded DNA, one strand shown
Matrix: in vitro
Tested at: 2540 nM top
Setting: 60-bp whole probe
Together with: salmon DNA 0.4 mg/ml
Baseline: random background probes
Reading: higher = stronger binding
Shared flanks, not repeated: GCCTAGCAC … GTCTTGATTCGCTTGACGCTGCTG
Strand | fitted relative affinity
TGCATTTTTTTTTTCTACTTGTGCTAG | 0.826 z-score
TCACTCGTGTTTTTCTCACTGTGCTAG | 0.0438 z-score
GACGGTCTCCTTTTCTTGACGTGCTAG | 4.62 z-score
TCATTTATACCTTAGGTACTGTGCTAG | 1.22 z-score
TTGGCTTTCCTTTATGTCCTGTGCTAG | 3.3 z-score
GACGGTCTCCTTCTGCTGACGTGCTAG | 2.33 z-score
AACCATTTTGGTTTTCTCTAGTGCTAG | 1.8 z-score
TTGGGTATCCTTCTCCTTTAGTGCTAG | 5.86 z-score
TTAGCTTTCGGTTCCGGTTAGTGCTAG | 7.12 z-score
TTAGGACTGCTTTTCCATTAGTGCTAG | 0.376 z-score
TTAGCACTGAGTTTCGATTAGTGCTAG | 2.17 z-score
TCAGGCCTCTTCATTCATACTGTGCTA | -0.513 z-score
TCAACTTTAAATTAGACACTGTGCTAG | 0.187 z-score
CCGTAGCTTCCTTTCGCCGCGTGCTAG | 1.01 z-score
TCATGCTTGTGTCTGGGACTGTGCTAG | -0.605 z-score
CAGCGCGCAGCTGCCAGAACGTGCTAG | -0.634 z-score
TTAGATTTCAGTTCGGATTAGTGCTAG | 1.71 z-score
GACGATATCGGTTTCGAGACGTGCTAG | 3.97 z-score
TCATTTTTCTATATGCAACTGTGCTAG | 2.03 z-score
TTAGGTCTCCTTCTCCTTGAGTGCTAG | 4.24 z-score
GATGGGCTACCTCTCTTAGAGTGCTAG | -0.821 z-score
GACGGTTTCGGACCGGGGACGTGCTAG | 3.43 z-score
TCATTCTTCCCTGTGAAACTGTGCTAG | 2.03 z-score
GTCGATCTCAGTATCGAGACGTGCTAG | 1.69 z-score
GACGATAGCAGACTGGAGACGTGCTAG | -0.642 z-score

For quick reference, copied from above (sample 1):
Modification | mean fluorescence intensity [a.u.]
2'F-ANA at 1 5 8 9 12 14 15 | 51.7
2'F-ANA at 2 4 5 7 9 11 12 13 15 | 125
2'F-ANA at 1 2 4 5 9 10 11 12 13 14 15 | 48.2
2'F-ANA at 5 6 9 10 13 14 15 | 45.4
2'F-ANA at 1 2 4 5 6 10 12 14 | 47.1
2'F-ANA at 1 2 10 12 14 | 107
2'F-ANA at 1 3 4 7 8 9 11 13 15 | 154
2'F-ANA at 1 2 3 4 9 10 14 | 57.2
2'F-ANA at 1 3 5 8 9 10 11 13 | 51.6
2'F-ANA at 1 2 6 10 12 13 14 | 49.1
2'F-ANA at 2 3 5 7 8 9 10 12 15 | 67.6
2'F-ANA at 1 2 5 6 7 9 11 12 | 118
2'F-ANA at 1 2 4 5 6 7 8 9 10 11 13 14 | 48.7
